Results gathered from unrelated publications.
Each numbered part is a random draw from the data of one study; scales do not carry over between parts. Several values in a cell are separate wells, animals, samples, runs or records.
Chain of UniProt Q13557 (whole entry, looked up): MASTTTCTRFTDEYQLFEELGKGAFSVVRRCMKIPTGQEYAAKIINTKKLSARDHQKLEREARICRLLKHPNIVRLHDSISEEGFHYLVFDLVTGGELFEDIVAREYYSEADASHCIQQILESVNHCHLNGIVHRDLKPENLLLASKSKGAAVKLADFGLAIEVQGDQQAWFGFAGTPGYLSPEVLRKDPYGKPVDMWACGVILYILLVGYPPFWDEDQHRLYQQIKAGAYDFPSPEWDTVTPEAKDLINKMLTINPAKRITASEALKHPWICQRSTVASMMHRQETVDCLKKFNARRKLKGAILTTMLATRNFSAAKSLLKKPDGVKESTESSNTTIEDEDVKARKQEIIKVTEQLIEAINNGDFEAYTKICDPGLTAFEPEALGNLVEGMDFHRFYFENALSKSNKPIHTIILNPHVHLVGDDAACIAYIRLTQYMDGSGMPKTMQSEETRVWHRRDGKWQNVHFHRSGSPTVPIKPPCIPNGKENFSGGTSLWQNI
Chain of UniProt Q00535 (whole entry, looked up): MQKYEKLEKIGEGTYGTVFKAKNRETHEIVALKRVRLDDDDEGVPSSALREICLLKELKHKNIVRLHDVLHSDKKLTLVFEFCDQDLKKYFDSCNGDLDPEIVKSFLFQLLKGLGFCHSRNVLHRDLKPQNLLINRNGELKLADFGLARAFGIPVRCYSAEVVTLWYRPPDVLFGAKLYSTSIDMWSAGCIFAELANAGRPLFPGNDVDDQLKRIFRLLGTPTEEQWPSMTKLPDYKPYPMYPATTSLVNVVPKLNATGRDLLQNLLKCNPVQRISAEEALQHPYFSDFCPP
Chain of UniProt P42336 (whole entry, looked up): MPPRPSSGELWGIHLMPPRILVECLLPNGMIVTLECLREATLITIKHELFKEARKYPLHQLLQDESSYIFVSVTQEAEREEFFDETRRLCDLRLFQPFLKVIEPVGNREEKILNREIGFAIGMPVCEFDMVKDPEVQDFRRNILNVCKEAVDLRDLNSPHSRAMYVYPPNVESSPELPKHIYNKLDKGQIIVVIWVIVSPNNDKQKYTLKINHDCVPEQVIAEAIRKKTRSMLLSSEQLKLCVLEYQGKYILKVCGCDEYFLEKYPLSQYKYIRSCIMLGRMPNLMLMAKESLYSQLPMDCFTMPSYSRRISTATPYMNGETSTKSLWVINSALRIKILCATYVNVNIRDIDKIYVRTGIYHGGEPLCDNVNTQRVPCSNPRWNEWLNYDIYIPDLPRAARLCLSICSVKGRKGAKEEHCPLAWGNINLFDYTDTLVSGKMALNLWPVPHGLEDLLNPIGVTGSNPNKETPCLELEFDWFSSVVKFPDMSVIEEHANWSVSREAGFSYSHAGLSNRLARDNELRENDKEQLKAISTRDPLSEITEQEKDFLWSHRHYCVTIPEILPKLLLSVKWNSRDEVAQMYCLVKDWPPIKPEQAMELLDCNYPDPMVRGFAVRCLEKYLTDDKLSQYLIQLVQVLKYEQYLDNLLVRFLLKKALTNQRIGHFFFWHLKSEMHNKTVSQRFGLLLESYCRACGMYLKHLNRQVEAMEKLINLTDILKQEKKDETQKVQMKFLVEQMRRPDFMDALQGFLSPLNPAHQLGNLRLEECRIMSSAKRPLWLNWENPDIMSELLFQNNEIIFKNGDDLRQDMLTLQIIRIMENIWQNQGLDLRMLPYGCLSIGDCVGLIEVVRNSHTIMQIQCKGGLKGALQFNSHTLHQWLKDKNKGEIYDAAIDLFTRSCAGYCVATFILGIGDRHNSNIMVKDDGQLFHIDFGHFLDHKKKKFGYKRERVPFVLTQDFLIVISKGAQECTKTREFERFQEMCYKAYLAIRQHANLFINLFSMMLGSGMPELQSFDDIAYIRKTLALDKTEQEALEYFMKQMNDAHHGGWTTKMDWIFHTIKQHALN
Chain of UniProt P45984 (whole entry, looked up): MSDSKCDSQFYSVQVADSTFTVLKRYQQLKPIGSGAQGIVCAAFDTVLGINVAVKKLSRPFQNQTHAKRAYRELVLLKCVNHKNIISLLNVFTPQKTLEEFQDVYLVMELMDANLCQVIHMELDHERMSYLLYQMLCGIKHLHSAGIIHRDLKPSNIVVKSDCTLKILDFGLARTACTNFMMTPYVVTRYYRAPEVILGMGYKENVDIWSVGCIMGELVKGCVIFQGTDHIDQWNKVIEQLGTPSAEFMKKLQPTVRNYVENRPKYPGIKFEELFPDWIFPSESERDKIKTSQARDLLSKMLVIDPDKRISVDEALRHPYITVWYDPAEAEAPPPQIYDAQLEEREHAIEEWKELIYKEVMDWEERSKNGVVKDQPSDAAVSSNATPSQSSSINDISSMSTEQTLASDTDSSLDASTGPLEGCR
Chain of UniProt Q15418 (whole entry, looked up): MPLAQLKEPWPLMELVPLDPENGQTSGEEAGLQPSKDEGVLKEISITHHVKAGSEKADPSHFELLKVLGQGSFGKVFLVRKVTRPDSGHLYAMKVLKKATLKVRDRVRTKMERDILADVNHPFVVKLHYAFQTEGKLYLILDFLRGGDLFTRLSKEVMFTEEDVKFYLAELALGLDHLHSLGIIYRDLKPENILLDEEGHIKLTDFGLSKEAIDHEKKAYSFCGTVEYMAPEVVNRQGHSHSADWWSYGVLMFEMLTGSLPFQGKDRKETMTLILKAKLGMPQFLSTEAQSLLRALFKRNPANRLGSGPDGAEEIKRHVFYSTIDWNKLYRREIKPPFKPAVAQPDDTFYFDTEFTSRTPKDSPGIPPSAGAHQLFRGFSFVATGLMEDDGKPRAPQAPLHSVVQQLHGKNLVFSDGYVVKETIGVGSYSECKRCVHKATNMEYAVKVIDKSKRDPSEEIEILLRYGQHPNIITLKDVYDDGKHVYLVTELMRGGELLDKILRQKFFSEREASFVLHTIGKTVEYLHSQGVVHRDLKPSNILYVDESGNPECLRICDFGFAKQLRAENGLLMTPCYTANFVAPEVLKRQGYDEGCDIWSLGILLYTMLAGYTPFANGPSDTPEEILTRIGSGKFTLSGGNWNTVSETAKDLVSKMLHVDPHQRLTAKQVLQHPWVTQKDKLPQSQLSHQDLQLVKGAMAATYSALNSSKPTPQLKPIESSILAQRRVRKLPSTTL
Chain of UniProt Q14164 (whole entry, looked up): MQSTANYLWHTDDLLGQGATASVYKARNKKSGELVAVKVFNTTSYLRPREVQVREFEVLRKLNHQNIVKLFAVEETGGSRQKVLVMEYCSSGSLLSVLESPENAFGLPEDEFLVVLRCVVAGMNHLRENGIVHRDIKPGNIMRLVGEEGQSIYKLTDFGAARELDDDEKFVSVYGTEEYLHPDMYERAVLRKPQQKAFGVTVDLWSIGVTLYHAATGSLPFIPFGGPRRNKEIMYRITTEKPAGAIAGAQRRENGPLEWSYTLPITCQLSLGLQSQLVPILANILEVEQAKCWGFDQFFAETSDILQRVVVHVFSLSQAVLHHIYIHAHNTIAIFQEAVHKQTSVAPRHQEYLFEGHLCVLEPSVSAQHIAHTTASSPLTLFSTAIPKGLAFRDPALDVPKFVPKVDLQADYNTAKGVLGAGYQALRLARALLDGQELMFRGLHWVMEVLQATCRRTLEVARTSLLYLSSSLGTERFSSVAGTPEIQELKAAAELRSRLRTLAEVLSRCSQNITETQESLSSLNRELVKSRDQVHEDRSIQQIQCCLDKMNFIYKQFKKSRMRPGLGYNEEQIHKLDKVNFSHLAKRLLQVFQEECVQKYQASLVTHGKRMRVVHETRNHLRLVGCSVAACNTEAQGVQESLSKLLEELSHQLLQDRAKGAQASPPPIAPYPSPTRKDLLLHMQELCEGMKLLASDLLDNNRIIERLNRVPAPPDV
Chain of UniProt P36897 (whole entry, looked up): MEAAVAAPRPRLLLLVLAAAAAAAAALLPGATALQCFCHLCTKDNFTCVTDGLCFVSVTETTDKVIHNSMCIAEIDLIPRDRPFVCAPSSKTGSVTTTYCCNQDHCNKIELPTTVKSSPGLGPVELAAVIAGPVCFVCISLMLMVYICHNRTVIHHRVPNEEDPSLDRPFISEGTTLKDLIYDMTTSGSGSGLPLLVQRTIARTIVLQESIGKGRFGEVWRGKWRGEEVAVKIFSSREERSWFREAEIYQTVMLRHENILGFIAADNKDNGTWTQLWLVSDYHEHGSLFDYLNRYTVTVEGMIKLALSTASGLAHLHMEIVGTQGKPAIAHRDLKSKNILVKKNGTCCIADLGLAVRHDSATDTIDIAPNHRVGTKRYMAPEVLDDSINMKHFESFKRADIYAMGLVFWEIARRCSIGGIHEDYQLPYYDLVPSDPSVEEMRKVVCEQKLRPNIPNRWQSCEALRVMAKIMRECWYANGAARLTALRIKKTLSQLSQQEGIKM
Chain of UniProt P15735 (whole entry, looked up): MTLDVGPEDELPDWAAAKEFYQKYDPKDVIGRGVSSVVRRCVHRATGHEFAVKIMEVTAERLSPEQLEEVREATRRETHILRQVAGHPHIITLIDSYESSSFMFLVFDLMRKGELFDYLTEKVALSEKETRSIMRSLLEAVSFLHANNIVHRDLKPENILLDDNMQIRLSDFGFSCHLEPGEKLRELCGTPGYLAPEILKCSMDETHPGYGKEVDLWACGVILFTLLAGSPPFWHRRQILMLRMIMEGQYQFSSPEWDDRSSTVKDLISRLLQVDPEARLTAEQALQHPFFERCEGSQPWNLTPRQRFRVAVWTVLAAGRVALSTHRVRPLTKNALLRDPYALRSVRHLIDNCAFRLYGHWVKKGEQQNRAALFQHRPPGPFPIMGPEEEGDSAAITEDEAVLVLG
Chain of UniProt Q9UIK4 (whole entry, looked up): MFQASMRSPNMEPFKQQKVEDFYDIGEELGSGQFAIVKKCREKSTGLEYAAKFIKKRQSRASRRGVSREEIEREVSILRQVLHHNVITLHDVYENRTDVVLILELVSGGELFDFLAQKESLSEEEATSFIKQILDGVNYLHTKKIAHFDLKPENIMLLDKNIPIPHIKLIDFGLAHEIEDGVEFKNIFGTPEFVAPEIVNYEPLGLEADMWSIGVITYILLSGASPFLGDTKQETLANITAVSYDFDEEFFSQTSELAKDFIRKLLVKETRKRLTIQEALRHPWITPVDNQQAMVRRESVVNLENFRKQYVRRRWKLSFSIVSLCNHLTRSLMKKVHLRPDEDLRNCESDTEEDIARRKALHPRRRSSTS

Set 1
Structure (SMILES): COc1cc(-c2cn(C3CCc4ccccc4N(CC(F)(F)F)C3=O)nn2)ccc1-n1ccc(C)n1 (centres unmarked)
Effect on: cell-free assay
Technique: competition with immobilised ligand
Concentration: 1 µM
target | remaining binding [%]
Ephrin type-A receptor 3 (EPHA3, Homo sapiens, UniProt P29320) | 95
Mitogen-activated protein kinase 9 (MAPK9, Homo sapiens, UniProt P45984) | 64
Interleukin-1 receptor-associated kinase 4 (IRAK4, Homo sapiens, UniProt Q9NWZ3) | 95
Serine/threonine-protein kinase SIK3 (SIK3, Homo sapiens, UniProt Q9Y2K2) | 92
Serine/threonine-protein kinase TAO2 (TAOK2, Homo sapiens, UniProt Q9UL54) | 100
Serine/threonine-protein kinase WNK2 (WNK2, Homo sapiens, UniProt Q9Y3S1) | 87
Phosphorylase b kinase gamma catalytic chain, liver/testis isoform (PHKG2, Homo sapiens, UniProt P15735) | 100
Mitogen-activated protein kinase kinase kinase 2 (MAP3K2, Homo sapiens, UniProt Q9Y2U5) | 100
Phosphatidylinositol 4,5-bisphosphate 3-kinase catalytic subunit alpha isoform (PIK3CA, Homo sapiens, UniProt P42336) | 69
Phosphatidylinositol 4,5-bisphosphate 3-kinase catalytic subunit gamma isoform (PIK3CG, Homo sapiens, UniProt P48736) | 67
Ribosomal protein S6 kinase alpha-1, N-terminal kinase domain (RPS6KA1, Homo sapiens, UniProt Q15418) | 82
Misshapen-like kinase 1 (MINK1, Homo sapiens, UniProt Q8N4C8) | 100
Tyrosine-protein kinase BTK (BTK, Homo sapiens, UniProt Q06187) | 82

Set 2
Compound: CC#CC(=O)Nc1cc2c(Nc3ccc(F)c(Cl)c3)ncnc2cn1
Effect on: enzyme activity
Mode: inhibitor
Concentration: 0.5 µM
Reference: control
target | remaining activity
Inhibitor of nuclear factor kappa-B kinase subunit epsilon (IKBKE, Homo sapiens, UniProt Q14164) | 98.9%
TGF-beta receptor type-2 (TGFBR2, Homo sapiens, UniProt P37173) | 123%
TGF-beta receptor type-1 (TGFBR1, Homo sapiens, UniProt P36897) | 98.7%
Death-associated protein kinase 2 (DAPK2, Homo sapiens, UniProt Q9UIK4) | 105%
Calcium/calmodulin-dependent protein kinase type II subunit delta (CAMK2D, Homo sapiens, UniProt Q13557) | 100%
Tyrosine-protein kinase Lyn, isoform B (LYN, Homo sapiens, UniProt P07948) | 96.1%
Cyclin-dependent kinase 5, with p25 (CDK5, Homo sapiens, UniProt Q00535) | 99.2%
STE20/SPS1-related proline-alanine-rich protein kinase (STK39, Homo sapiens, UniProt Q9UEW8) | 91.3%

Set 3
Host: mouse
Matrix: microsomes or S9
Concentration: 2 µM
Time: 0.5 h
Structure (SMILES) | remaining compound
Cc1cc2occ(CC(=O)N3CCOC4(CCCOC4)C3)c2cc1C(C)C (centres unmarked) | 49.5%
Cc1nn(C)cc1-c1nn(-c2ccccc2)c(-c2cn(C)nc2C)c1C | 21.9%
NC(=O)C1CCC(CNCc2cc3ccccc3s2)CC1 (centres unmarked) | 0.239%
O=C1c2[nH]nc(-c3ccccc3)c2C(c2ccccn2)N1CCc1c[nH]c2ccccc12 (centres unmarked) | 9.54%

Further values, each from its own experiment
Cell line: L444P/L444P Gaucher fibroblasts
Technique: 4-MUG hydrolysis in lysate
Time: 72 h
Reference: vehicle
Structure (SMILES) | concentration | enzyme activity
Cc1cccc(/C=N/Nc2cc(N3CCOCC3)nc(OCCc3ccccn3)n2)c1 | 50 nM | 174% and 169% and 144% and 167% and 173% and 186%
Ic1ccc(Nc2nc(NCCN3CCOCC3)nc(N3CCOCC3)n2)cc1 | 0.1 µM | 111% and 106% and 118% and 76.9% and 89.6% and 100%
c1ccc2c(-c3nn4c(-c5ccncc5)nnc4s3)c[nH]c2c1 | 0.1 µM | 133% and 134% and 138% and 127% and 114% and 151% and 142% and 149%
O=C(COc1ccc(Cl)cc1)NC1CCC(NC(=O)COc2ccc(Cl)cc2)CC1 (centres unmarked) | 0.02 µM | 113% and 111% and 112% and 115% and 110%

Some of these lines once more (set 2):
target | remaining activity
Calcium/calmodulin-dependent protein kinase type II subunit delta (CAMK2D, Homo sapiens, UniProt Q13557) | 100%
Tyrosine-protein kinase Lyn, isoform B (LYN, Homo sapiens, UniProt P07948) | 96.1%
Cyclin-dependent kinase 5, with p25 (CDK5, Homo sapiens, UniProt Q00535) | 99.2%
